Results pooled from the literature.
Lines come from different studies, so protocols differ. Several values in a cell are separate wells, animals, samples, runs or records. ± marks the error that the study gave.

Compound | assay | test system | conditions | quantity | value
CC[C@H](C)[C@H](NC(=O)[C@H](CCCCN)NC(=O)CNC(=O)[C@H](CC(C)C)NC(=O)[C@H](Cc1ccccc1)NC(=O)[C@H](CCCCN)NC(=O)[C@H](CO)NC(=O)[C@H](Cc1ccccc1)NC(=O)[C@H](Cc1c[nH]c2ccccc12)NC(=O)[C@H](CCC(N)=O)NC(=O)[C@@H](NC(=O)[C@H](Cc1ccccc1)NC(=O)CCCCCNC(=O)CN1CCN(CC(=O)O)CCN(CC(=O)O)CCN(CC(=O)O)CC1)C(C)C)C(=O)N[C@@H](CCC(=O)O)C(=O)N1CCC[C@H]1C(=O)N[C@@H](CC(=O)O)C(=O)N[C@H](C(=O)N[C@@H](CO)C(=O)N[C@@H](CCC(N)=O)C(=O)N[C@H](C(=O)N[C@@H](CCC(N)=O)C(=O)N[C@@H](CC(=O)O)C(=O)N1CCC[C@H]1C(=O)N[C@@H](CC(N)=O)C(=O)N[C@@H](CC(=O)O)C(=O)N[C@@H](CCC(N)=O)C(=O)N[C@@H](Cc1ccc(O)cc1)C(=O)N[C@@H](CCC(=O)O)C(=O)N1CCC[C@H]1C(=O)N[C@@H](Cc1ccccc1)C(=O)O)C(C)C)C(C)C [copper-64 labelled] | – | C57BL/6 mice, male, naive, brown fat | 24 h | tissue uptake | 3.15 ± 0.7 %ID/g
CC[C@H](C)[C@H](NC(=O)[C@@H](Cc1c[nH]c2ccccc12)NC(=O)[C@@H]1CCCN1C(=O)[C@H](CCCCN)NC(=O)[C@H](CCCCN)NC(=O)CCNC(=O)CCNC(=O)CN1CCN(CC(=O)O)CCN(CC(=O)O)CCN(CC(=O)O)CC1)C(=O)N[C@@H](C[Si](C)(C)C)C(=O)O [gallium-68 labelled] | – | nude mouse HT-29 xenograft, lungs | 90 min | tissue uptake | 1.6 ± 0.24 %ID/g
[Ga+3].[O-]c1ccc(Br)c2cccnc12.[O-]c1ccc(Br)c2cccnc12.[O-]c1ccc(Br)c2cccnc12 | – | oil/water | pH 7.4 | log P | 1.55
C[C@H](NC(=O)[C@@H](N)CC(=O)O)C(=O)N[C@@H](Cc1c[nH]cn1)C(=O)N[C@@H](CCCCN)C(N)=O | RP-HPLC | 50% human serum | 100 µM, 24 h, 37 °C | intact peptide remaining | 13%
CN1Cc2cc(Cl)ccc2-n2c(nnc2C2CCN(c3cccc([18F])n3)CC2)C1 | – | C57BL/6 mouse male, spleen | intravenous, 3.7 MBq, 15 min | tissue uptake | 4.22 ± 1.08 %ID/g
COC(=O)[C@@H](NC(=O)c1nn(Cc2ccc(F)cc2)c2cc(OCCCCNC(=N)N)ccc12)C(C)(C)C | tail-flick test | mouse | intraperitoneal | dose producing thermal antinociception | 30 mg/kg
C=Cc1c(C)c2cc3nc(c(CC(=O)[O-])c4[n-]c(cc5nc(cc1[n-]2)C(C)=C5CC)c(C)c4C(=O)[O-])C(CCC(=O)[O-])C3C.[Cu+2].[Na+].[Na+].[Na+] (centres unmarked) | – | Wistar rat, male | oral, 250 mg/kg daily, 28 days | serum alkaline phosphatase | 164 ± 43.7 U/L
CC(C)[C@@H]1NC(=O)CNC(=O)[C@H](CC(N)=O)NC(=O)[C@H](CCCNC(=N)N)NC(=O)[C@H](Cc2ccc(O)cc2)NC(=O)[C@H](C(C)C)NC(=O)[C@@H](NC(=O)[C@@H](NC(=O)[C@H](CC(N)=O)NC(=O)[C@H](Cc2c[nH]c3ccccc23)NC(=O)[C@H](C)NC(=O)[C@H](Cc2ccccc2)NC(=O)CNC(=O)[C@H](CCCCN)NC(=O)[C@H](Cc2ccccc2)NC(=O)[C@H](Cc2ccccc2)NC(=O)[C@H](CCCCN)NC(=O)OCC2c3ccccc3-c3ccccc32)C(C)C)CSSC[C@@H](C(=O)N[C@@H](Cc2c[nH]cn2)C(=O)N[C@@H](CCCNC(=N)N)C(=O)N[C@@H](CCCNC(=N)N)C(=O)N[C@@H](C)C(=O)N[C@@H](CC(N)=O)C(N)=O)NC(=O)[C@H](C(C)C)NC(=O)[C@H](CCCNC(=N)N)NC1=O | – | ICR mice, blood | intraperitoneal, 10 mg/kg, day 5 | eosinophils | 2.52 ± 0.2%
O=C1NC2(CC2)COc2ncc(F)cc2[C@H]2COCCN2c2ccn3ncc1c3n2 | – | Sprague-Dawley rat, male, blood | oral, 20 mg/kg/day, 4 weeks, end of recovery, subacute toxicity | lymphocyte percentage | 81.7 ± 5.9%
N#Cc1c(Cl)ccc2c1C1(CCN(C(=O)c3cnc4[nH]ncc4c3)CC1)C(=O)N2CC(=O)NCC(F)(F)F | – | mouse liver microsomes | – | CLint | 17 µL/min/mg protein
CC(C)C[C@@H](NC(=O)[C@@H](CCCNC(=N)N)NC(=O)[C@@H](Cc1c[nH]cn1)NC(=O)[C@@H](Cc1c[nH]c2ccccc12)NC(=O)[C@@H](Cc1c[nH]cn1)NC(=O)[C@@H](Cc1ccccc1)NC(=O)[C@H](NC(=O)[C@@H](Cc1ccc(O)cc1)NC(=O)CNC(=O)CNC(=O)CCOCCOCCOCCNC(=O)CN1CCN(CC(=O)O)CCN(CC(=O)O)CC1)[C@H](C)O)C(=O)N[C@H](CC(N)=O)C(=O)N1CCC[C@@H]1C(=O)O [gallium-68 labelled] | OLINDA/EXM | adult male human, Gallbladder wall | extrapolated from C57BL/6 mice | organ absorbed dose | 0.00979 ± 0.00011 mSv/MBq
CC[C@H](C)[C@H](NC(=O)[C@H](C)NC(=O)[C@H](CCCCN)NC(=O)[C@H](CC(C)C)NC(=O)[C@@H](N)Cc1ccccc1)C(=O)N[C@@H](CCCCN)C(=O)N[C@@H](CCCCN)C(=O)N[C@@H](Cc1ccccc1)C(=O)NCC(=O)N[C@@H](CCCCN)C(=O)N[C@@H](CCC(=O)O)C(=O)N[C@@H](Cc1ccccc1)C(=O)N[C@@H](CCCCN)C(=O)N[C@@H](CCCCN)C(=O)N[C@H](C(=O)NCC(=O)N[C@@H](C)C(=O)N[C@@H](CCCCN)C(=O)N[C@@H](CC(C)C)C(=O)N[C@@H](CCCCN)C(=O)O)[C@@H](C)CC | – | human red blood cells | 0.25 mg/L, 1 h, mean of replicates | hemolysis | 0.286%
CC(C)(CCCC/C=C/CCCCCC(C)(C)C(=O)O)C(=O)O | mass spectrometry | C57BL/6 mouse, liver | oral, 30 mg/kg, 1 h, single dose | concentration | 15600 ng/g
COc1cnc2cccc(N3CCc4c(cc(Cn5ccnc5)cc4-c4cn(C)nc4C(F)(F)F)C3=O)c2c1 | – | BALB/c nude mice, MV4-11 xenograft | intraperitoneal, 75 mg/kg, day 17 | body weight | 21.8 g and 21.6 g and 22.3 g and 24.6 g

Excerpt of the above:
Compound | assay | test system | conditions | quantity | value
N#Cc1c(Cl)ccc2c1C1(CCN(C(=O)c3cnc4[nH]ncc4c3)CC1)C(=O)N2CC(=O)NCC(F)(F)F | – | mouse liver microsomes | – | CLint | 17 µL/min/mg protein
